Experimental data of several laboratories.
Each line is one published result; not all experiments were run side by side. “And” joins repeats or separate records; there may be more than shown. Numbers after ± are the reported error.
lecA: PA-I galactophilic lectin (lecA, Pseudomonas aeruginosa, UniProt Q05097)
Complement C3 C3b fragment: Complement C3, C3b fragment (Homo sapiens, UniProt P01024)
Histone chaperone ASF1A: Histone chaperone ASF1A (Homo sapiens, UniProt Q9Y294)

NC[C@@H]1O[C@H](O[C@H]2[C@@H](O)[C@H](O[C@@H]3[C@@H](O)[C@H](N)C[C@H](N)[C@H]3O[C@H]3O[C@H](CN)[C@@H](O)[C@H](O)[C@H]3N)O[C@@H]2CO)[C@H](N)[C@@H](O)[C@@H]1O: “heat capacity change” -116 ± 4 cal/(mol·K) (poly(dA)·2poly(dT) triplex; ITC; concentration not given, pH 6.8, KCl 150 mM).
O=C(COc1ccc(F)cc1)N[C@@H](Cc1cn(CCNC(=O)c2ccc(S[C@@H]3O[C@H](CO)[C@H](O)[C@H](O)[C@H]3O)cc2)nn1)C(=O)NCCO has a −TΔS of 3.49 ± 0.167 kcal/mol (lecA; binding, isothermal titration calorimetry; 25 °C).
O=c1c(-c2cnn(-c3ccc(Cl)cc3)c2)c(C(F)(F)F)oc2c(O)c(O)ccc12: “effective concentration range” roughly 10 µM (Cullin-4A, in CRL4-CRBN complex (CUL4A, Homo sapiens, UniProt Q13619); CK1α ubiquitination by CRL4-CRBN, inhibitor).
COc1ccc2c(c1)/C(=N/N=C/c1ccc(OCc3cccc(F)c3)cc1)C(=O)N2 has a remaining activity of 87.5% (MAOA (Homo sapiens, UniProt P21397); enzyme activity, inhibitor; 10 µM).
The kon of CC[C@H](C)[C@H](NC(C)=O)C(=O)N[C@H]1CSSC[C@@H](C(=O)N[C@H](C(N)=O)[C@@H](C)O)NC(=O)[C@H](CCCNC(=N)N)NC(=O)[C@H](Cc2c[nH]cn2)NC(=O)[C@H](C)NC(=O)CNC(=O)[C@H](Cc2c[nH]c3ccccc23)NC(=O)[C@H](CC(=O)O)NC(=O)[C@H](CCC(N)=O)NC(=O)[C@H](Cc2ccc(O)cc2)NC(=O)[C@H](C(C)C)NC1=O is reported as 410000 ± 220000 M⁻¹ s⁻¹ (Complement C3 C3b fragment; SPR; pH 7.4, 25 °C).
CCOC(=O)c1cnc(CNCCc2c[nH]c3cccc(C)c23)s1 has an Emax of 93.7% (HTR2B (Homo sapiens, UniProt P41595); β-arrestin recruitment, agonist).
The -TΔS of CC[C@H](C)[C@H](NC(=O)[C@H](CCCNC(=N)N)NC(=O)NC[C@H](CCC(N)=O)NC(=O)NC[C@H](CC(C)C)NC(=O)NC[C@H](CCCNC(=N)N)NC(=O)NC[C@H](CCc1ccccc1)NC(=O)[C@H](CCCCN)NC(=O)[C@H](CCC(=O)O)NC(C)=O)C(=O)N[C@@H](C)C(N)=O is reported as -3.5 ± 0.7 kcal/mol (Histone chaperone ASF1A; isothermal titration calorimetry; pH 7.5, 20 °C).
For Cc1cc(N)nc(C[C@@H]2CNC[C@@H]2OCCCCCc2cc(F)cc(Cl)c2)c1, the selectivity ratio was 461 (Nos2 (Mus musculus, UniProt P29477); enzyme activity, inhibitor; reference: Ki Nos2 over Ki nNOS).
CC[C@H](C)[C@H](NC(C)=O)C(=O)N[C@H]1CSSC[C@@H](C(=O)N[C@H](C(N)=O)[C@@H](C)O)NC(=O)[C@H](CCCNC(=N)N)NC(=O)[C@H](Cc2c[nH]cn2)NC(=O)[C@H](C)NC(=O)CNC(=O)[C@H](Cc2c[nH]c3ccccc23)NC(=O)[C@H](CC(=O)O)NC(=O)[C@H](CCC(N)=O)NC(=O)[C@H](Cc2ccc(OC)cc2)NC(=O)[C@H](C(C)C)NC1=O gave a koff of 0.082 ± 0.008 s⁻¹ (Complement C3 C3b fragment; SPR; pH 7.4, 25 °C).
For CC[C@H](C)[C@H](NC(C)=O)C(=O)N[C@H]1CSCC[C@@H](C(=O)N(C)[C@H](C(N)=O)[C@@H](C)CC)NC(=O)[C@H](CCCNC(=N)N)NC(=O)[C@H](Cc2c[nH]cn2)NC(=O)[C@H](C)NC(=O)CN(C)C(=O)[C@H](Cc2c[nH]c3ccccc23)NC(=O)[C@H](CC(=O)O)NC(=O)[C@H](CCC(N)=O)NC(=O)[C@H](Cc2cn(C)c3ccccc23)NC(=O)[C@H](C(C)C)NC1=O, the Kd ratio was 4 to 6 fold (Complement C3 C3b fragment; binding, SPR; sulfoxide oxidized; reference: untreated peptide).
With CCCC[C@H](NC(=O)[C@@H]1CSSC[C@H](NC(=O)[C@@H](NC(C)=O)[C@@H](C)CC)C(=O)N[C@@H](C(C)C)C(=O)N[C@@H](Cc2cn(C)c3ccccc23)C(=O)N[C@@H](CCC(N)=O)C(=O)N[C@@H](CC(=O)O)C(=O)N[C@@H](Cc2c[nH]c3ccccc23)C(=O)N(C)CC(=O)N[C@@H](C)C(=O)N[C@@H](Cc2c[nH]cn2)C(=O)N[C@@H](CCCNC(=N)N)C(=O)N1)C(N)=O the relative KD was 2.7 (Complement C3 C3b fragment; SPR; 25 °C; reference: [Trp(Me)4]-Ac-compstatin).
O=C(CCC1CO1)Oc1ccc([N+](=O)[O-])cc1 (racemic) — result for “signal to background ratio”: 2 and 3 (Epoxide hydrolase 1 (Ephx1, Rattus norvegicus, UniProt P07687); substrate, absorbance; 50 µM, pH 9.0, 37 °C, rat enzyme).
For O=C(CO)COP(=O)(O)O, the kcat/Km was 20 M⁻¹ s⁻¹ (Triosephosphate isomerase (TPI1, Gallus gallus, UniProt P00940, V167P/W168E); isomerisation, substrate).
CNS(=O)(=O)Nc1cccc(-n2c(=O)n(C3CC3)c(=O)c3c(Nc4ccc(I)cc4F)n(C)c(=O)c(C)c32)c1: outcome “inhibited” (MAP2K1 (Homo sapiens, UniProt Q02750); phosphorylation by upstream kinase, inhibitor; 1 µM).
C[C@]12CC[C@H]3[C@@H](CCC4=CC(=O)CC[C@@]43C)[C@@H]1CC[C@@H]2C(=O)CO has a kcat increase of 7 fold (CYP11B2 (Homo sapiens, UniProt P19099); substrate; reference: 40-fold over equimolar adrenodoxin).
For CC[C@H](C)[C@H](NC(=O)[C@H](CCCNC(=N)N)NC(=O)NC[C@H](CCC(N)=O)NC(=O)NC[C@@H](NC(=O)NC[C@H](CCCNC(=N)N)NC(=O)NC[C@H](Cc1ccc2ccccc2c1)NC(=O)[C@H](CCCCN)NC(=O)[C@H](CCC(=O)O)NC(C)=O)C(c1ccccc1)c1ccccc1)C(=O)N[C@@H](C)C(N)=O, the binding enthalpy was -3.5 ± 0.6 kcal/mol (Histone chaperone ASF1A; isothermal titration calorimetry; concentration not given, pH 7.5, 20 °C).
For O=C1C=CC2(c3coc4cc(O)ccc4c3=O)c3cc(-c4coc5cc(O)ccc5c4=O)ccc3OC2C1 (centres unmarked), the Hill coefficient was 1.36 (laccase (Trametes versicolor); substrate, Hill kinetic model; product formation).
Nc1ncnc2c1ncn2[C@@H]1O[C@H](CO)[C@@H](O[C@H]2O[C@H](CO)[C@@H](OP(=O)(O)O)[C@H](OP(=O)(O)O)[C@H]2O)[C@H]1O has a ΔpKd of 1.54 ± 0.14 (Inositol 1,4,5-trisphosphate-gated calcium channel ITPR1, IP3-binding core (Itpr1, Rattus norvegicus, UniProt P29994, R504Q); binding, 3H-IP3 competition; IP3-binding core, unit not given; reference: R504Q over wild type).
For Nc1ncnc2c1ncn2C1CC(O)C(COP(=O)(O)OP(=O)(O)C(F)P(=O)(O)O)O1 (mixture of isomers), “delta effective pKa4” read -0.3 pK units (DNA polymerase eta (POLH, Homo sapiens, UniProt Q9Y253); dNTP incorporation, single-turnover kinetics; W sequence, A·T pair; reference: non-enzymatic LFER line).
CC[C@H](C)[C@H](NC(=O)[C@H](CO)NC(=O)[C@H](Cc1ccc(O)cc1)NC(=O)[C@H](CC(=O)O)NC(=O)[C@H](CO)NC(=O)[C@@H](NC(=O)[C@H](Cc1ccccc1)NC(=O)[C@@H](NC(=O)CNC(=O)[C@@H]1CCCN1C(=O)[C@H](C)NC(=O)[C@@H](N)Cc1ccc(O)cc1)[C@@H](C)O)[C@@H](C)CC)C(=O)N[C@@H](C)C(=O)N[C@@H](CCSC)C(=O)N[C@@H](CC(=O)O)C(=O)N[C@@H](CCCCN)C(=O)N[C@H](C(=O)N[C@@H](CCCNC(=N)N)C(=O)N[C@@H](CCC(N)=O)C(=O)N[C@@H](CCC(N)=O)C(=O)N[C@@H](CC(=O)O)C(=O)N[C@@H](Cc1ccccc1)C(=O)N[C@H](C(=O)N[C@@H](CC(N)=O)C(=O)N[C@@H](Cc1c[nH]c2ccccc12)C(=O)N[C@@H](CC(C)C)C(=O)N[C@@H](CC(C)C)C(=O)N[C@@H](C)C(=O)N[C@@H](CCC(N)=O)C(=O)N[C@@H](CCCCN)C(=O)NCC(=O)N[C@@H](CCCCN)C(=O)N[C@@H](CCCCN)C(=O)N[C@@H](CC(N)=O)C(=O)N[C@@H](CC(=O)O)C(=O)N[C@@H](Cc1c[nH]c2ccccc12)C(=O)N[C@@H](CCCCN)C(=O)N[C@@H](Cc1c[nH]cn1)C(=O)N[C@@H](CC(N)=O)C(=O)N[C@@H](CC(C)C)C(=O)N[C@H](C(=O)N[C@@H](CCC(N)=O)C(=O)O)[C@@H](C)O)C(C)C)[C@@H](C)CC gave an Emax of 64% (Gastric inhibitory polypeptide receptor (Rattus norvegicus, UniProt P43219); cAMP, agonist; COS-7).
Under EC50, COc1ccc(S(=O)(=O)N2CCN(CC(=O)Nc3ccc(OC)cc3OC)C(=O)C2)cc1 is recorded as “inactive” (GRM4 (Homo sapiens, UniProt Q14833); calcium mobilization, positive allosteric modulator; CHO cells expressing Gqi5; with: glutamate EC20).
For OC[C@H]1O[C@@H](OCc2cn([C@@H]3O[C@H](CO)[C@@H](n4cc(-c5ccc(-c6cn([C@H]7[C@H](O)[C@@H](O)[C@H](n8cc(CO[C@@H]9O[C@H](CO)[C@H](O)[C@H](O)[C@H]9O)nn8)O[C@@H]7CO)nn6)cc5)nn4)[C@H](O)[C@H]3O)nn2)[C@H](O)[C@@H](O)[C@H]1O, the ΔG was -10.9 ± 0.4 kcal/mol (lecA; isothermal titration calorimetry; 25 °C).
For CC1(C)CCN(Cc2ccc(C(=O)NC[C@]3(O)CCCN(c4cc(NCc5ccccc5)ncn4)C3)c(O)c2)CC1, the remaining activity was 89% and 88% (Histone-lysine N-methyltransferase 2B, complex (KMT2B, Homo sapiens, UniProt Q9UMN6); radiometric; 10 µM, with: 1 µM SAM).
N=C(N)NCCC[C@@H](N)C(=O)NCC(=O)N[C@H](CCC(=O)O)C(=O)N[C@H](CCCNC(=N)N)C(=O)N1CCC[C@@H]1C(=O)N1CCC[C@@H]1C(=O)N[C@H](CCCNC(=N)N)C(N)=O: “binding free energy ΔG” -10 kcal/mol (Neuropilin-1 (NRP1, Homo sapiens, UniProt O14786); SPR).
The inhibition of C#Cc1cccc(N(C(=O)CCl)C(C(=O)NC2CCCCC2)c2ccccn2)c1 (racemic) is reported as no less than 98% (GSTO1 (Homo sapiens, UniProt P78417); probe labelling, gel-based competitive ABPP; MDA-MB-435 soluble proteome; 100 nM, with: SE-Rh probe).
The selectivity ratio of COc1ccc(CCCN[C@@H]2CCC[C@H]2CN[C@H]2CCC[C@@H]2CNCCCCN[C@H]2CCC[C@@H]2CN)cc1 is reported as 4.7 (KDM1B (Homo sapiens, UniProt Q8NB78); peroxidase-coupled; reference: Ki for KDM1B over Ki for LSD1).
CCC1(CC)C(=O)N(c2cccc(CN3CCN(c4cc(C)nc5ccc(Br)cc45)CC3)c2)C1=O gave an SILAC ratio of greater than 3 (DPP9 (Homo sapiens, UniProt Q86TI2); probe labelling, inhibitor, competitive ABPP mass spectrometry; U-937 cell lysate; 10 µM, with: FP-biotin 10 µM; reference: DMSO over compound).
Under “ΔH of binding”, CC[C@H](C)[C@H](NC(=O)[C@@H]1CSSC[C@H](NC(=O)[C@@H](NC(C)=O)[C@@H](C)CC)C(=O)N[C@@H](C(C)C)C(=O)N[C@@H](Cc2cn(C)c3ccccc23)C(=O)N[C@@H](CCC(N)=O)C(=O)N[C@@H](CC(=O)O)C(=O)N[C@@H](Cc2c[nH]c3ccccc23)C(=O)NCC(=O)N[C@@H](C)C(=O)N[C@@H](Cc2c[nH]cn2)C(=O)N[C@@H](CCCNC(=N)N)C(=O)N1)C(N)=O is recorded as -16.6 kcal/mol (Complement C3 (Homo sapiens, UniProt P01024); ITC; PBS; concentration not given, pH 7.4, 25 °C).
NS(=O)(=O)c1ccc(NC(=O)c2ccccc2SSc2ccccc2C(=O)Nc2ccc(S(N)(=O)=O)cc2)cc1 has a Hill coefficient of 1.32 (Gag-Pol polyprotein, integrase core 50-213 (gag-pol, Human immunodeficiency virus type 1 group M subtype B, UniProt P04585); DNA binding, fluorescence anisotropy; integrase CC; compound:IN ratio 3:1, with: 10 mM Mg2+, U5 DNA).

A few entries again:
For CC[C@H](C)[C@H](NC(=O)[C@H](CCCNC(=N)N)NC(=O)NC[C@H](CCC(N)=O)NC(=O)NC[C@@H](NC(=O)NC[C@H](CCCNC(=N)N)NC(=O)NC[C@H](Cc1ccc2ccccc2c1)NC(=O)[C@H](CCCCN)NC(=O)[C@H](CCC(=O)O)NC(C)=O)C(c1ccccc1)c1ccccc1)C(=O)N[C@@H](C)C(N)=O, the binding enthalpy was -3.5 ± 0.6 kcal/mol (Histone chaperone ASF1A; isothermal titration calorimetry; concentration not given, pH 7.5, 20 °C).
CNS(=O)(=O)Nc1cccc(-n2c(=O)n(C3CC3)c(=O)c3c(Nc4ccc(I)cc4F)n(C)c(=O)c(C)c32)c1: outcome “inhibited” (MAP2K1 (Homo sapiens, UniProt Q02750); phosphorylation by upstream kinase, inhibitor; 1 µM).
For O=C1C=CC2(c3coc4cc(O)ccc4c3=O)c3cc(-c4coc5cc(O)ccc5c4=O)ccc3OC2C1 (centres unmarked), the Hill coefficient was 1.36 (laccase (Trametes versicolor); substrate, Hill kinetic model; product formation).
